Measurements of several laboratories.
Lines come from different studies, so protocols differ. “And” joins repeats or separate records; there may be more than shown. Numbers after ± are the reported error.

`CC(C)(O)c1coc(S(=O)(=O)NC(=O)Nc2c3c(cc4c2CCC4)CCC3)c1` has an LDH release of 16.4% and 20.6% and 17.4% (THP-1 CASP1 knockout, LPS-primed; inhibitor; 25 µM, 2 h, with: nigericin 6.25 µM).
`CCc1n(Cc2ccc3ccccc3c2)c2ccccc2[n+]1Cc1ccc2ccccc2c1` — result for “mean growth percentage”: 56% (NSCLC cell lines; NCI60 one-dose screen; 10 µM).
For `C[C@H]1CN(C2COC2)CCN1c1ccc(Nc2cc(-c3ccnc(N4CCn5c(cc6c5CC(C)(C)C6)C4=O)c3CO)cn(C)c2=O)nc1`, the maximum inhibition was 91.8% (TMD8 wild-type; calcium flux, FLIPR; 2 h preincubation, with: anti-IgM).
`CCc1cnc(N2CCC(c3nc(COc4ccc(-n5cnnn5)cc4)cs3)CC2)nc1` — result for “normalized enrichment score”: 0.929 (HEK-293T; RNA-seq GSEA, measured: HALLMARK_PANCREAS_BETA_CELLS; concentration not given; direction not given).
`c1ccc2cc(Cn3cc[n+](Cc4ccc5ccccc5c4)c3)ccc2c1` gave a CC50 of 15.2 to 71.9 µM (NSCLC cell lines; NCI60 five-dose; range over NSCLC panel).
`Cc1ccc(-c2cc3ccccc3c(N)n2)cc1` — result for “early apoptotic cells”: 2.7% (RS4;11; annexin V-FITC/PI flow cytometry, measured: annexin V+ PI-; 2.5 µM, 72 h).
Under “cAMP level difference”, `N#Cc1ccc(Oc2ccc3c(c2)COB3O)cc1` is recorded as -2.07 (PBMC; MSD; 10 µM, unit not given, with: PGE2; relative to: DMSO).
For `Cc1c(CNC(=O)c2nn3c(c2Cl)N[C@@H](c2ccccc2)C[C@@H]3C(F)(F)F)cnn1C`, the maximum inhibition was 0% (MEF with TRE-FLAG-LMNB1; LMNB1 level, high-content screening; 250 µM).
`CCOC(=O)C1CCN(C(=O)C(C)(C)NC(=O)Nc2ccc(Cl)cc2Cl)CC1` — result for “number of differentially expressed genes”: 284 (Drosophila S3; RNA-Seq; 1 µM, 4 h, with: oleic acid 200 µM; relative to: DMSO with oleic acid).
For `COCCc1n(Cc2ccc3ccccc3c2)c2ccccc2[n+]1Cc1ccc2ccccc2c1`, “mean growth percentage” read -23.2% (NSCLC cell lines; NCI60 one-dose screen; 10 µM).
The necrotic cells of `CC1(C)CCC(CN2CCN(c3ccc(C(=O)NS(=O)(=O)c4ccc(NCC5CCOCC5)c([N+](=O)[O-])c4)c(Oc4cnc5[nH]ccc5c4)c3)CC2)=C(c2ccc(Cl)cc2)C1` is reported as 0.1% (THP-1; annexin V/PI flow cytometry, measured: annexin V-/PI+; 0.8 µM, 24 h).
`CCOc1ccc(-c2nc3cc(-c4nc5cc(N6CCN(C)CC6)ccc5[nH]4)ccc3[nH]2)cc1OCC` has a growth percent of -42.7% (SF-539; SRB; 10 µM, 48 h).
For `C=CCn1c(=O)c2cnc(Nc3ccc(N4CCN(C)CC4)cc3)nc2n1-c1ccc2c(n1)[C@@](O)(CC)CC2`, “G2/M phase mitotic cells” read 5.38% (MDA-MB-231; flow cytometry; concentration not given).
`CCn1cc(-c2cc(Cn3ccoc3=N)cc3c2CCN([C@@H](C)c2cc(OC)ccn2)C3=O)c(C(F)(F)F)n1` has an EC50 of 7.27 µM (JHH6; cell growth; 120 h).
For `C=CC(=O)Nc1cccc(Oc2nc(Nc3ccc(N4CCN(C)CC4)cc3)nc3ccoc23)c1`, the maximum inhibition was 46.7% (TMD8 wild-type; calcium flux, FLIPR; 2 h preincubation, with: anti-IgM).
`Nc1cccc2c1C(=O)N(C1CCC(=O)NC1=O)C2=O` (centres unmarked) gave a viability of 100% (bone marrow CD138+ myeloma cells; XTT; 0.2 µM, mean of three patients).
For `C=CC(=O)N1CCC(Oc2cc3c(Nc4ccc(Cl)c(Cl)c4F)ncnc3cc2OC)CC1`, the selectivity ratio was 0.013 (NCI-H2073 EGFR ASV knock-in; cell proliferation, CellTiter-Glo; relative to: knock-in over parental NCI-H2073).
`C=CC(=O)N1[C@@H](c2ccc3c(c2)OCO3)c2[nH]c3ccccc3c2C[C@H]1C(=O)NC` — result for “mean neuron degeneration”: 79.6% (rat DRG neurons; 0.01372 µM, 48 h, with: vincristine 40 nM).
For `CCn1cc(-c2cc(Cn3ccnc3)cc3c2CCN([C@H](c2cc(OC)ccn2)C2CC2)C3=O)c(C(F)(F)F)n1`, the EC50 was greater than 30 µM (JHH6; cell growth; 120 h).
`CSc1cc(Oc2ccnc3[nH]c(=O)cnc23)ccc1NC(=O)Nc1cc(C(C)(C)C)nn1-c1ccccc1`: “phospho/total Akt ratio” 0.27 (patient-derived cell line (sample C); reverse phase protein array, measured: Akt pSer473; human; 1 µM, 4 h; relative to: DMSO).
`COc1cc(/C=C/C(=O)N2CCC=CC2=O)cc(OC)c1OC` has a mRNA level of 98.3 ± 4.9% (MDA-MB-468; qRT-PCR, measured: PRDX6; 30 µM, 6 h; relative to: time zero).
`C[C@]12CC[C@@H]3c4ccc(O)cc4CC[C@H]3[C@@H]1CC[C@@H]2O` gave an Emax of 97% (MCF7 3xERE-luc, steroid-deprived; ERE luciferase reporter, agonist; relative to: vehicle).
For `CCOc1cc([C@@H](CS(C)(=O)=O)N2C(=O)c3cccc(NC(C)=O)c3C2=O)ccc1OC`, “cAMP level difference” read -0.913 (PBMC; MSD; 0.0001 µM, unit not given, with: PGE2; relative to: DMSO).
For `Cn1cc(Nc2nccc(-c3ccc4c(c3)CN(C3COC3)CC[C@H]4NC(=O)c3cn(C(C)(C)C)nn3)n2)cn1`, “pathway activation z-score” read 0.905 (mouse splenic B cells; measured: Neuregulin signalling; 30 mg/kg, IgD-activated in vivo; relative to: vehicle, direction not given).
With `CC/C(=N\NC(=O)NCc1cccc(O)c1)c1ccc(O)c(C)c1O` the protein level was 1.08 ± 0.3 (SK-OV-3; Western blot, measured: YAP; 1 µM, 1 h, 2D culture, unit not given; relative to: β-actin).
`CCCCc1nc(Cl)c(CO)n1Cc1ccc(-c2ccccc2-c2nn[nH]n2)cc1`: “log2 fold change” 1.52 (human PBMC; RNA-seq, measured: PLAUR mRNA; 10 µg/mL, 24 h; relative to: untreated control).
For `COc1cc2ncnc(Nc3ccc(Oc4ccccc4)cc3C)c2cc1OC.O=C(O)C(F)(F)F`, “Bliss synergy score” read -13.7% (SW1417 (BRAF V600E); resazurin; concentration not given, 72 h, with: trametinib; direction not given).
`CCCCN1C[C@H](O)[C@@H](O)[C@@H](O)[C@H]1CO` has an IC50 of 6.9 µM (sample F patient fibroblasts; GlcCer level lowering, LC-MS/MS, measured: GlcCer d18:1/16:0; 216 h).
`Cc1ccc2c(c1)C(=O)[C@]1(O)CCN(c3ccc4nc(C)ccc4c3)C1=N2.Cl`: “polysomal mRNA level” “no effect” (murine cells; polysome RT-qPCR, measured: Myh10; concentration not given).
For `Cc1cc(Nc2ncc(Cl)c(Nc3ccccc3S(=O)(=O)C(C)C)n2)c(OC(C)C)cc1C1CCNCC1`, “log2 fold change” read -1.81 (CLB-BAR; phosphoproteomics LC-MS/MS, measured: BCR phosphorylation; 200 nM, 60 min; relative to: untreated).
For `[Cl-].[Cl-].[Os+2].c1cnc2c(c1)ccc1cccnc12.c1cnc2c(c1)ccc1cccnc12.c1cnc2c(c1)ccc1cccnc12`, the GI50 was 4.98 µM (SK-MEL-28; sulforhodamine B; normoxia, with: white visible light).
For `O=C(O)COCC(=O)O`, the IC50 was 19000 µM (hepatocytes, iPSC-derived, line W3; cell viability, RealTime-Glo MT; 72 h, differentiation day 23).
The EC50 of `COc1cnc2cccc(N3CCc4c(cc(Cn5ccnc5C)cc4-c4cn(C)nc4C(F)(F)F)C3=O)c2c1` is reported as greater than 30 µM (HEC-50B; cell growth, inhibitor; 120 h).
`O=C(Nc1c(Cl)cncc1Cl)c1ccc(OC(F)F)c(OCC2CC2)c1`: “cAMP level difference” -0.51 (PBMC; MSD; 10 µM, unit not given, with: PGE2; relative to: DMSO).
`Nc1ncnc2c1ncn2[C@@H]1O[C@H](CO)[C@@H](O)[C@H]1O` — result for “log2 fold change”: 5.7 and 5.6 (activated human T cells; measured: dihydroorotate; 10 µM; relative to: DMSO).
`Cn1cc(-c2ccc(-c3cncc(Cl)c3N3CCC4(CCNC4=O)CC3)cc2)cn1`: “log2 fold change” -6.8 (COLO 205; gene expression, microarray, measured: PLA2G2A mRNA; concentration not given, 6 h; relative to: untreated cells).
The protein level of `CC/C(=N\NC(=O)C(C)Nc1ccccc1)c1ccc(O)c(C)c1O` (centres unmarked) is reported as 1.16 ± 0.73 (SK-OV-3; Western blot, measured: LATS; 10 µM, 1 h, 2D culture, unit not given; relative to: β-actin).
For `O=C(/C=C/C=C/C=C/C1CCCCC1)NC1=C[C@@](O)(/C=C/C=C/C=C/C(=O)NC2=C(O)CCC2=O)[C@@H]2O[C@@H]2C1=O`, the GI50 was 16.9 µM (IGR-37; cell growth, CellTiter-Glo; 78 h).
`Cc1cccc(-c2[nH]c(CNc3ccccc3F)nc2-c2ccc3ncnn3c2)n1` gave a viability of 14% (MM1.S; XTT; 3 µM; relative to: untreated).
`Cn1c(Nc2nc3ccc(C(F)(F)F)cc3s2)nc2cc(C(=O)NCCOCCO)ccc21` gave a fold change of 2.57 (SH-SY5Y; RNA-seq, measured: TFPI2 mRNA; 5 µM, 5 h; relative to: untreated cells).
For `CCCc1n(Cc2ccc3ccccc3c2)c2ccccc2[n+]1Cc1ccc2ccccc2c1`, “mean growth percentage” read -30.7% (NSCLC cell lines; NCI60 one-dose screen; 10 µM).
With `COc1ccc(-n2nc(C(C)=O)s/c2=N\N=C(/C)c2ccc(NC(=O)c3ccccc3)cc2)cc1` the viability was 2.72% (MCF7; 0.625 µM).
For `CC(C)NCC(O)c1ccc(O)c(O)c1` (centres unmarked), the sarcomere length was 1.8 µm (mouse ventricular cardiomyocytes; dose not given, 0.039 s).
With `CCc1n(Cc2ccc3ccccc3n2)cc[n+]1Cc1ccc2ccccc2c1.[Br-]` the TGI was no less than 0.671 µM (NSCLC cell lines; lower end of range).
For `Cc1c(C(=O)NN2CCCCC2)nn(-c2ccc(Cl)cc2Cl)c1-c1ccc(Cl)cc1`, the inhibition was roughly 20% (CHO wild-type cells lacking MOR, membranes; basal G-protein activity; 10 µM).
For `C=C1CN(S(=O)(=O)c2ccc(C)cc2)CCCN(Cc2ccccc2)CCCN(S(=O)(=O)c2ccc(C)cc2)C1`, “polyubiquitinated FLuc level” read 5.04 (HEK293 with FLuc reporter; FLAG-ubiquitin immunoprecipitation; concentration not given, 6 h, unit not given; relative to: mock).
`CCN1CCN(Cc2ccc(NC(=O)c3ccc(C)c(-c4ccc5nc(NC(=O)C6CC6)cn5n4)c3)cc2C(F)(F)F)CC1` — result for cell proliferation: “inhibited” (MUTZ5 B-ALL cells; CellTiter-Glo; concentration not given, 3 d).

For quick reference, copied from above:
For `Cc1c(CNC(=O)c2nn3c(c2Cl)N[C@@H](c2ccccc2)C[C@@H]3C(F)(F)F)cnn1C`, the maximum inhibition was 0% (MEF with TRE-FLAG-LMNB1; LMNB1 level, high-content screening; 250 µM).
`CCOC(=O)C1CCN(C(=O)C(C)(C)NC(=O)Nc2ccc(Cl)cc2Cl)CC1` — result for “number of differentially expressed genes”: 284 (Drosophila S3; RNA-Seq; 1 µM, 4 h, with: oleic acid 200 µM; relative to: DMSO with oleic acid).
For `COCCc1n(Cc2ccc3ccccc3c2)c2ccccc2[n+]1Cc1ccc2ccccc2c1`, “mean growth percentage” read -23.2% (NSCLC cell lines; NCI60 one-dose screen; 10 µM).
The necrotic cells of `CC1(C)CCC(CN2CCN(c3ccc(C(=O)NS(=O)(=O)c4ccc(NCC5CCOCC5)c([N+](=O)[O-])c4)c(Oc4cnc5[nH]ccc5c4)c3)CC2)=C(c2ccc(Cl)cc2)C1` is reported as 0.1% (THP-1; annexin V/PI flow cytometry, measured: annexin V-/PI+; 0.8 µM, 24 h).
`CCOc1ccc(-c2nc3cc(-c4nc5cc(N6CCN(C)CC6)ccc5[nH]4)ccc3[nH]2)cc1OCC` has a growth percent of -42.7% (SF-539; SRB; 10 µM, 48 h).
For `C=CCn1c(=O)c2cnc(Nc3ccc(N4CCN(C)CC4)cc3)nc2n1-c1ccc2c(n1)[C@@](O)(CC)CC2`, “G2/M phase mitotic cells” read 5.38% (MDA-MB-231; flow cytometry; concentration not given).
